Experimental data pooled from the literature.
Compare with care: the assays were run in different laboratories.
RPS6KA3 N-terminal kinase domain: Ribosomal protein S6 kinase alpha-3, N-terminal kinase domain (RPS6KA3, Homo sapiens, UniProt P51812)
RPS6KA3 C-terminal kinase domain: Ribosomal protein S6 kinase alpha-3, C-terminal kinase domain (RPS6KA3, Homo sapiens, UniProt P51812)

Compound | target | effect on | technique | tested at | relative to | remaining binding
CC(C)=CC1OC(C)(C)C2C=C3C(=O)C(Cl)=CC(O)C3C3C(O)C4OC4C(=O)C132 (stereo not drawn) | RPS6KA3 N-terminal kinase domain | cell-free assay | competition with immobilised ligand | 10 µM | – | 56%
CCN1CCN(Cc2ccc(C(=O)Nc3ccc(C)c(NCc4cnc5[nH]ccc5c4OC)c3)cc2C(F)(F)F)CC1 | RPS6KA3 N-terminal kinase domain | binding | competition with immobilised ligand | 1 µM | – | 68%
CC(=O)N1c2ccc(-c3ccc(CNC(=O)c4cn5cc(-c6cnc(N)nc6)nc(N6CCOCC6)c5n4)cc3)cc2CC[C@@H]1C | RPS6KA3 N-terminal kinase domain | – | KINOMEscan | 10 µM | – | 85%
COc1cc(Nc2nccc(-c3cnn4nc(OC)ccc34)n2)cc(C(F)(F)F)c1 | RPS6KA3 N-terminal kinase domain | binding | competition with immobilised ligand | 1 µM | – | 86%
Cc1ccc(-c2c(/C=C(\C#N)C(=O)NC(C)C)n(CCCO)c3ncnc(N)c23)cc1 | RPS6KA3 N-terminal kinase domain | binding | competition with immobilised ligand | 1 µM | – | 79%
COc1cc(Nc2nc(C)cc(-c3cnn4nc(OC)ccc34)n2)cc(C(F)(F)F)c1 | RPS6KA3 C-terminal kinase domain | binding | competition with immobilised ligand | 1 µM | – | 98%
CNC1C[S+]2CC[S+]3CC[S+](C1)[Ru-4]321([N]=C=S)[n]2c3ccc(OC)cc3c3c4c(c5cc(F)c[n+]1c5c32)C(=O)NC4=O (stereo not drawn) | RPS6KA3 N-terminal kinase domain | – | KinomeScan | 0.1 µM | untreated | 33%
Nc1ncc2c(n1)-c1c([nH]c3ccc(C4=CCOCC4)cc13)CCC2 | RPS6KA3 N-terminal kinase domain | binding | competition with immobilised ligand | 1 µM | – | 61%
CNS(=O)(=O)Nc1nccc(Cc2c(C)c3ccc(Oc4ncccc4F)cc3oc2=O)c1F | RPS6KA3 N-terminal kinase domain | binding | competition with immobilised ligand | 10 µM | – | 51%
COc1c(Cl)cccc1Nc1c(-c2ccncc2C#C[C@@]2(C)CCCN2C(=O)/C=C/CN(C)C)[nH]c2c1C(=O)NCC2 | RPS6KA3 N-terminal kinase domain | binding | competition with immobilised ligand | 3 µM | – | 47%
CNC(=O)C1CCN(c2cc(C)c(F)cc2NC(=O)c2ccc(-c3cc(O)ccc3C)c(C)c2)CC1 | RPS6KA3 C-terminal kinase domain | binding | competition with immobilised ligand | 1 µM | – | 95%
Cc1cnc2nc1Nc1cccc(c1)COC/C=C/COCc1cc(ccc1OCCN1CCOCC1)N2 | RPS6KA3 C-terminal kinase domain | binding | competition with immobilised ligand | 0.1 µM | – | 73%
C=CC(=O)N1CCCC(n2c(=O)c3ncccc3n(Cc3ccc(Oc4ccccc4)cc3)c2=O)C1 (stereo not drawn) | RPS6KA3 N-terminal kinase domain | binding | competition with immobilised ligand | 1 µM | – | 69%
CN1CCN(Cc2ccc(NC(=O)c3cccc(C#Cc4cnc(N)c5ncccc45)c3)cc2C(F)(F)F)CC1 | RPS6KA3 N-terminal kinase domain | cell-free assay | competition with immobilised ligand | 50 nM | – | 77%
C=CC(=O)N1CCc2ccc(-n3c(=O)ccc4cnc5ccc(-c6cnn(C)c6)cc5c43)cc21 | RPS6KA3 C-terminal kinase domain | – | KINOMEscan | 1 µM | DMSO control | 100%

Repeated from above:
Compound | target | effect on | technique | tested at | relative to | remaining binding
C=CC(=O)N1CCCC(n2c(=O)c3ncccc3n(Cc3ccc(Oc4ccccc4)cc3)c2=O)C1 (stereo not drawn) | RPS6KA3 N-terminal kinase domain | binding | competition with immobilised ligand | 1 µM | – | 69%
CN1CCN(Cc2ccc(NC(=O)c3cccc(C#Cc4cnc(N)c5ncccc45)c3)cc2C(F)(F)F)CC1 | RPS6KA3 N-terminal kinase domain | cell-free assay | competition with immobilised ligand | 50 nM | – | 77%
